Published values collected from several papers.
Each numbered part is a random draw from the data of one study; scales do not carry over between parts.

Sample 1
Target: Histone acetyltransferase KAT6A, winged helix 2, GST fusion (KAT6A, Homo sapiens, UniProt Q92794, residues 85-181)
Technique: protein binding microarray
Molecule type: double-stranded DNA, one strand shown
Matrix: in vitro
Tested at: not given
Notes: 8-mer, flanks averaged, mean of 2 arrays, mostly near background
Baseline: not given
Reading: higher = stronger binding
Target sequence (chain): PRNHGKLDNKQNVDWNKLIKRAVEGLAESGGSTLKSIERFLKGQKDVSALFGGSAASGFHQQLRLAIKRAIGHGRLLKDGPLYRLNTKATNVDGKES
Oligonucleotide	E-score
ATCCATTC	0.0231
CCCCGTAG	-0.00043
CTTATACC	-0.131
CCGAGAAG	-0.0356
CATAAGGG	0.00918
AAATGCTC	0.00757
ACTTAGTG	-0.00468

Sample 2
Target: TAR DNA-binding protein 43, full length, His tag (TARDBP, Homo sapiens, UniProt Q13148, residues 1-414)
Technique: RNA Bind-n-Seq
Molecule type: RNA
Matrix: in vitro
Tested at: 20 nM
Notes: 6-mer, flanks averaged, single round
With: 150 mM KCl
Baseline: input library
Reading: higher = stronger binding
Oligonucleotide	6-mer enrichment (R)
GCCGUG	1.39
GAUUAU	0.601
GGUUAA	0.885
GAGUGA	1.66
ACUACA	0.613
ACCAGU	0.683
CCUUAU	0.618
AACAAU	0.97
UGAGCU	0.767

Sample 3
Target: Myc proto-oncogene protein, bHLH-zipper, MAX partner unstated (MYC, Homo sapiens, UniProt P01106, residues 368-449)
Chain of UniProt P01106 (368-449, looked up): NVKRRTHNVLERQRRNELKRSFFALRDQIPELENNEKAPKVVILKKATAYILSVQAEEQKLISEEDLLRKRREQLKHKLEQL
Technique: protein-binding microarray
Molecule type: double-stranded DNA, one strand shown
Matrix: in vitro
Tested at: not given
Notes: k-mer, scored over probes, only values ≥0.25
Reading: higher = stronger binding
Oligonucleotide	E-score
ACGCAATG	0.257
CCACGCGG	0.493
ATAACACG	0.357
CGCGTTAC	0.281
ATGTGTCC	0.345
GCATGCGA	0.415

Single results of other studies
Substance	target	test	system	conditions	scale	endpoint	result
PhoQ, residues 284 288 289 292 302 303 TLASMF	PhoP, residues 12 14 15 18 19 LQHIR (Escherichia coli, UniProt P23836)	Sort-seq, item: YFP reporter	E. coli	PhoQ-PhoP variant library, with: 10 µM Mg2+	baseline: high Mg2+ state, higher = stronger signaling	fold induction	4.3
